Results pooled from the literature.
Protocols differ between the studies behind these lines. “And” joins repeats or separate records; there may be more than shown. Numbers after ± are the reported error. In brackets after ≈: the same amount, converted by molar mass.
Chain of UniProt Q4JIM5 (whole entry, looked up): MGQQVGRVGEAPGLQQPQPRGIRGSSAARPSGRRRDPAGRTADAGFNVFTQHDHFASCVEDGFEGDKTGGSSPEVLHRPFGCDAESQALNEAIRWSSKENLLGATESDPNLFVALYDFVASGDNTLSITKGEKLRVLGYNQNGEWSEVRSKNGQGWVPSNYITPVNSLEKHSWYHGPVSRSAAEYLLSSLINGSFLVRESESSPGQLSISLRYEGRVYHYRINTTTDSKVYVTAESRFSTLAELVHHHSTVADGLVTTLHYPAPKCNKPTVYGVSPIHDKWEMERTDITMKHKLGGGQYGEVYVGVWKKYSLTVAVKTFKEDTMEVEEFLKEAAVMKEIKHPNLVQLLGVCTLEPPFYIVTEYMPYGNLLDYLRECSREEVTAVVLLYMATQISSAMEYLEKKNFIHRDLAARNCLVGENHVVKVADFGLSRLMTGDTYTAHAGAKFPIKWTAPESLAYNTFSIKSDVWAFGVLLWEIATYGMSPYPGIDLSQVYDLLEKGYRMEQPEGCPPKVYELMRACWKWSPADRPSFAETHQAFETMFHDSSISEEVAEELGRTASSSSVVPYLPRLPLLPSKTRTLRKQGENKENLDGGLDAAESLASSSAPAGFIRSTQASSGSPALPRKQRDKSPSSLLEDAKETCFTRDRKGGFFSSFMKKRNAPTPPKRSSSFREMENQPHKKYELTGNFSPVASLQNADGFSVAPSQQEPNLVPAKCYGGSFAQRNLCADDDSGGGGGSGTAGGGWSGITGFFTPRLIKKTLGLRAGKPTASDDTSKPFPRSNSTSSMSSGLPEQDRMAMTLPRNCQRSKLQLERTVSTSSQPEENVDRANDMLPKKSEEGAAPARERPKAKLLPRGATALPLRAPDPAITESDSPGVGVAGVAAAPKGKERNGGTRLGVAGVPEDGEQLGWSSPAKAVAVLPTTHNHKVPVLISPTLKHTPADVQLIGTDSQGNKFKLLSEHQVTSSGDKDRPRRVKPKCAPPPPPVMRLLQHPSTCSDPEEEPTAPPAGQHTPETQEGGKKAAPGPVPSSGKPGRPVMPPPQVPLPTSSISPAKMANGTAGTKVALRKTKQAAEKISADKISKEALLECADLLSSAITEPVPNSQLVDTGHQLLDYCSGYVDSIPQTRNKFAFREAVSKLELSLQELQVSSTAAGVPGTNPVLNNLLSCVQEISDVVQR
Chain of UniProt P42336 (whole entry, looked up): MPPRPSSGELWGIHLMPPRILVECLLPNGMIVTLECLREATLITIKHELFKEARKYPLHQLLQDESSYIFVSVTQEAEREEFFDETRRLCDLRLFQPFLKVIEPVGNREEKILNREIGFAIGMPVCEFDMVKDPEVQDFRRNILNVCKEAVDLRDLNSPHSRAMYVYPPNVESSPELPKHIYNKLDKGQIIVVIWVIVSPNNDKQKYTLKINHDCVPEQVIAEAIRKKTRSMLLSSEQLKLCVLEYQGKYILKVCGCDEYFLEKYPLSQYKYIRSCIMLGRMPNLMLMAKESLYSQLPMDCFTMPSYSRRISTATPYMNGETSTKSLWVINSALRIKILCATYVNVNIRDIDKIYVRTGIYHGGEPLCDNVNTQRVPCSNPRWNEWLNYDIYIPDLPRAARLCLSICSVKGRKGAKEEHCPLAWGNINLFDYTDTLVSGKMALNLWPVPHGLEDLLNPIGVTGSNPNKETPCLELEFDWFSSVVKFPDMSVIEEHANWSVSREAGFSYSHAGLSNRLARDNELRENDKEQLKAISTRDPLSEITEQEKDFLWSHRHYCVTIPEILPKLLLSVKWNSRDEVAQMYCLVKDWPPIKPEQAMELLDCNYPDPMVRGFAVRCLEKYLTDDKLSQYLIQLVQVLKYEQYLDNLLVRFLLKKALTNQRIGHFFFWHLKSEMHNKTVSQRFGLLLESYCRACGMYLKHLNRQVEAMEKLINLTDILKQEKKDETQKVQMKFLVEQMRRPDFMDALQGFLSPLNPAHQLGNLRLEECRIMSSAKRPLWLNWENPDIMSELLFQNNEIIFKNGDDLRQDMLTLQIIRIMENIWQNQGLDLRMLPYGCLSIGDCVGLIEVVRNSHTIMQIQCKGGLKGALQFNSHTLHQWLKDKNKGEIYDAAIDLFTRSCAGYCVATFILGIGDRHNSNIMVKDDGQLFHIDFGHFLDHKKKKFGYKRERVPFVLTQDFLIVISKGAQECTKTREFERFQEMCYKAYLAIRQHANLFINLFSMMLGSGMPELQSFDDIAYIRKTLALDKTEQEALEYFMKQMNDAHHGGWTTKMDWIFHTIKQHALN

SMILES | target or system | assay | system | conditions | how to read | quantity | value
O=C1NC(=O)c2c1c1cc(F)c[n+]3c1c1c2c2cc(O)ccc2[n]1[Ru-4]312([N]=C=S)[S+]3CC[S+]1CC[S+]2CC3 (stereo not shown) | Abl2 (Mus musculus, UniProt Q4JIM5) | enzyme activity |  | 100 nM, mouse enzyme, added: 10 µM ATP | reference: untreated | remaining activity | 90%
COc1ccccc1-c1n[nH]c2nc(NC3CCN(C(=O)Cc4ccc(F)cc4F)CC3)ncc12 |  | bead binding, competition bead pull-down, measured: LMJF.28.2750 | Leishmania donovani axenic amastigote extract | 10 µM | reference: vehicle | relative abundance | 1.11
CC[C@H](C)CCCCC(=O)N[C@@H](CCN)C(=O)N[C@H](C(=O)N[C@@H](CCN)C(=O)N[C@H]1CCNC(=O)[C@H]([C@@H](C)O)NC(=O)[C@H](CCN)NC(=O)[C@H](CCN)NC(=O)[C@H](CC(C)C)NC(=O)[C@@H](CC(C)C)NC(=O)[C@H](CCN)NC1=O)[C@@H](C)O | Escherichia coli | daily serial passaging | ATCC 8739 | highest sub-MIC, 19 days | reference: initial MIC | MIC fold change | 1.63
FC(F)(F)c1cccc(CNc2nc(NC3CCN(Cc4ccccc4)CC3)c3nc[nH]c3n2)c1 | Cryptococcus neoformans | RNA-seq, measured: SAC1 (CNAG_06080) |  | 48 µg/mL, 3 h | reference: untreated | mRNA fold change | 1.36
NCCCO.O=C(O)C(Cl)Cl | Amaranthus retroflexus | herbicidal activity |  | 15 mg/mL, 21 days, pre-emergence greenhouse |  | inhibition | 0%
Cc1cc(C(=O)Nc2nc3cccc(C)c3n2[C@H]2CCCCN(C(=O)/C=C/CN(C)C)C2)ccn1 | Trypanosoma brucei brucei |  | 2T1 CLK1 C215S overexpressing | 0.01029 µM, 72 h |  | survival | 112% and 108% and 101% and 114% and 103% and 68.4%
CC[C@H](C)[C@H](NC(=O)[C@H](CO)NC(=O)[C@H](Cc1ccc(O)cc1)NC(=O)[C@H](Cc1ccc(O)cc1)NC(=O)[C@H](CC(N)=O)NC(=O)CNC(=O)[C@H](CO)NC(=O)[C@H](Cc1ccc(O)cc1)NC(=O)[C@H](CO)NC(=O)[C@H](CO)NC(=O)[C@H](CC(N)=O)NC(=O)COCCOCCNC(=O)CN1CCN(CC(=O)O)CCN(CC(=O)O)CCN(CC(=O)O)CC1)C(=O)N[C@@H](CC(C)C)C(N)=O [copper-64 labelled] |  | dynamic PET | KPC mouse Ptf1a-CreER tdTomato, pancreas | intravenous, dose not given, 1.9 min, 84 d after tamoxifen |  | tissue uptake | 15.2 %ID/mL
CCc1nn(C)c2nc(-c3ccc(C(=O)O)cc3)nc(NCc3ccccc3)c12 | Cryptosporidium parvum |  | HCT-8 | 3 x EC90, 24 h | reference: DMSO control | parasite number | 56.5% and 62.4% and 60.4% and 41.1%
CCOC(=O)C1(Cc2ccc(C#N)cc2)Oc2cc(F)ccc2N(Cc2ccc(C#N)cc2)C1=O (stereo not shown) | Amaranthus retroflexus | fresh weight, greenhouse postemergence |  | postemergence, 150 g ai/ha, 21 days |  | inhibition | 47.1 ± 4.24%
O=C(CCN(CCC(=O)N[C@@H](Cc1c[nH]c2ccccc12)C(=O)O)C(=O)CCN(CCC(=O)N(CCC(=O)N[C@@H](Cc1c[nH]c2ccccc12)C(=O)O)CCC(=O)N[C@@H](Cc1c[nH]c2ccccc12)C(=O)O)C(=O)CCC(CCC(=O)N(CCC(=O)N(CCC(=O)N[C@@H](Cc1c[nH]c2ccccc12)C(=O)O)CCC(=O)N[C@@H](Cc1c[nH]c2ccccc12)C(=O)O)CCC(=O)N(CCC(=O)N[C@@H](Cc1c[nH]c2ccccc12)C(=O)O)CCC(=O)N[C@@H](Cc1c[nH]c2ccccc12)C(=O)O)(CCC(=O)N(CCC(=O)N(CCC(=O)N[C@@H](Cc1c[nH]c2ccccc12)C(=O)O)CCC(=O)N[C@@H](Cc1c[nH]c2ccccc12)C(=O)O)CCC(=O)N(CCC(=O)N[C@@H](Cc1c[nH]c2ccccc12)C(=O)O)CCC(=O)N[C@@H](Cc1c[nH]c2ccccc12)C(=O)O)[N+](=O)[O-])N[C@@H](Cc1c[nH]c2ccccc12)C(=O)O | human adenovirus 2 | viral replication | HEL cells |  |  | EC50 | 20 ± 0.05 µM
CC(C)(C)C(=O)OCOP(=O)(OCOC(=O)C(C)(C)C)C1CCCN(O)C1=O (stereo not shown) | NCI/ADR-RES | cell growth |  |  |  | TGI | 3.55 µM
O=CCNCCOn1c(=O)n(OCCNCCO)c(=O)n(OCCNCCOn2c(=O)n(OCCNCCO)c(=O)n(OCCNCCO)c2=O)c1=O | Aspergillus fumigatus | broth microdilution |  |  |  | MLC | 16 ± 2 µg/mL (≈ 20.8 µM)
CC(C)[C@H]1NC(=O)[C@H](Cc2ccccc2)NC(=O)[C@@H](C(C)C)NC(=O)[C@@H](C)NC(=O)[C@H](C)NC(=O)[C@@H](Cc2c(-c3ccc(-c4ccc5ccccc5c4)cc3)[nH]c3ccccc23)NC(=O)[C@@H](C)NC1=O | Vibrio vulnificus | broth dilution |  |  |  | MIC90 | > 50 µM
CC(=O)N[C@@H](CC(C)C)C(=O)N[C@H]1CSSC[C@@H](C(=O)N2CCC[C@H]2C(N)=O)NC(=O)[C@H]([C@@H](C)O)NC(=O)[C@H](C(C)C)NC(=O)[C@H]([C@@H](C)O)NC(=O)CNC(=O)[C@H](CCCCN)NC(=O)[C@H](Cc2ccccc2)NC(=O)[C@H](Cc2ccc(O)cc2)NC(=O)[C@H](CCCCN)NC(=O)[C@H](CCC(=O)O)NC(=O)[C@H](Cc2ccccc2)NC(=O)[C@H](CCCNC(=N)N)NC(=O)[C@H](CCCCN)NC(=O)[C@H](CC(C)C)NC(=O)[C@H](CC(=O)O)NC(=O)[C@@H]2CCCN2C(=O)[C@H](CCCCN)NC(=O)[C@H](C(C)C)NC(=O)[C@H](CCCCN)NC(=O)[C@H](CCCCN)NC(=O)[C@H]([C@@H](C)O)NC1=O | Vibrio alginolyticus | broth dilution |  | 24 h |  | MIC | > 40 µM
CS(C)(=O)=Nc1ccc(-c2ccc(-c3nc4cc(O[C@@H]5CO[C@H]6[C@@H]5OC[C@H]6O)[nH]c4cc3F)cc2)cc1 | Phosphatidylinositol 4,5-bisphosphate 3-kinase catalytic subunit alpha isoform, with p65 alpha (PIK3CA, Homo sapiens, UniProt P42336) | kinase activity |  | 10 µM |  | inhibition | -1%
[O-][N+]1=C(c2ccc(Cl)cc2)C2=NCCCCN2c2ccccc21 | Bacteroides fragilis |  |  |  |  | MIC90 | 2 µg/mL
CC(C)CCCCCCCCC/C=C/C(=O)N[C@@H](CC(=O)O)C(=O)N[C@H]1CNC(=O)[C@@H]2CCCN2C(=O)[C@H](C(C)C)NC(=O)[C@@H](CN)NC(=O)CNC(=O)[C@H](CC(=O)O)NC(=O)CNC(=O)[C@H](CC(=O)O)NC(=O)[C@H](CC(=O)O)NC(=O)[C@H]2CCCCN2C1=O | Enterococcus | broth microdilution | VRE 155, Mueller-Hinton broth, Mg2+ 10 mg/L | 16 h, added: Ca2+ 0 mM |  | MIC | > 128 µg/mL
COc1ccc(C2=[N+]([O-])c3ccccc3N3CCN=C23)cc1 | Bacteroides fragilis | microbial growth |  |  |  | MIC50 | ≤ 0.06 µg/mL
O=C1NC2(CC2)COc2ncc(F)cc2[C@H]2COCCN2c2ccn3ncc1c3n2 |  |  | Sprague-Dawley rat, female, serum | oral, 20 mg/kg/day, end of treatment, 4-week subacute toxicity |  | serum hepatic lipase activity | 3.8 ± 0.8 U/L

Excerpt of the above:
SMILES | target or system | assay | system | conditions | how to read | quantity | value
CC(C)CCCCCCCCC/C=C/C(=O)N[C@@H](CC(=O)O)C(=O)N[C@H]1CNC(=O)[C@@H]2CCCN2C(=O)[C@H](C(C)C)NC(=O)[C@@H](CN)NC(=O)CNC(=O)[C@H](CC(=O)O)NC(=O)CNC(=O)[C@H](CC(=O)O)NC(=O)[C@H](CC(=O)O)NC(=O)[C@H]2CCCCN2C1=O | Enterococcus | broth microdilution | VRE 155, Mueller-Hinton broth, Mg2+ 10 mg/L | 16 h, added: Ca2+ 0 mM |  | MIC | > 128 µg/mL
CC[C@H](C)CCCCC(=O)N[C@@H](CCN)C(=O)N[C@H](C(=O)N[C@@H](CCN)C(=O)N[C@H]1CCNC(=O)[C@H]([C@@H](C)O)NC(=O)[C@H](CCN)NC(=O)[C@H](CCN)NC(=O)[C@H](CC(C)C)NC(=O)[C@@H](CC(C)C)NC(=O)[C@H](CCN)NC1=O)[C@@H](C)O | Escherichia coli | daily serial passaging | ATCC 8739 | highest sub-MIC, 19 days | reference: initial MIC | MIC fold change | 1.63
